Published values gathered from unrelated publications.
Compare with care: the assays were run in different laboratories. “And” joins repeats or separate records; there may be more than shown. Numbers after ± are the reported error.

`OCc1ncc(-c2nn(Cc3ccccc3)c3ccccc23)o1` gave an inhibition of < 50% (RBE; cell viability; 46 µM).
For `CCc1ccccc1-n1nc(C)c(C(=O)Nc2ccc3ccccc3n2)c1C`, the inhibition was > 70% (Wnt-HEK293; Wnt/β-catenin signalling, inhibitor, luciferase reporter; 1 µM).
`Cc1nn(-c2nc3c(F)cc(F)cc3s2)c(O)c1C(c1ccc(C(F)(F)F)cc1)c1c(C)nn(-c2nc3c(F)cc(F)cc3s2)c1O` has an inhibition of 101% (THP1-Dual; IFN luciferase reporter; 80 µM, with: HT-DNA).
For `Cc1nn(-c2ccccc2F)c(C)c1C(=O)Nc1ccc2ccccc2n1`, the inhibition was > 70% (Wnt-HEK293; Wnt/β-catenin signalling, inhibitor, luciferase reporter; 1 µM).
The inhibition of `CSCC[C@@H]1NC(=O)[C@@H](NC(=O)[C@H](CO)NC(=O)[C@@H](NC(=O)CNC(=O)CNC(=O)CCCCCN)C(C)C)CSSC[C@@H](C(=O)N[C@@H](CCC(=O)O)C(=O)N[C@@H](CC(N)=O)C(=O)N[C@@H](CC(N)=O)C(=O)N[C@@H](CC(C)C)C(=O)O)NC(=O)[C@H](C(C)C)NC(=O)[C@@H]2CCCN2C(=O)[C@H](CO)NC(=O)[C@H]([C@@H](C)O)NC(=O)[C@H](CCC(N)=O)NC1=O` is reported as 49% (LS174T; labelled peptide binding; concentration not given, 1 h; relative to: unlabelled native peptide).
`CC(C)N=C(N)c1ccc2nc(-c3ccc(OCc4cccc(COc5ccc(-c6nc7ccc(C(N)=NC(C)C)cc7[nH]6)cc5)c4F)cc3)[nH]c2c1` — result for inhibition: “no effect” (HEK293 cells CMV-luciferase; reporter gene, CMV-luciferase counter-screen; concentration not given).
`OCc1cnc(-c2nn(Cc3ccccc3)c3ccccc23)o1` has an inhibition of < 50% (RBE; cell viability; 46 µM).
`COc1cc(/C=C/C(=O)CC(=O)/C=C/c2ccc(O)c(OC)c2)ccc1O` has an inhibition of ~50.6% (BV-2; nitric oxide production, Griess; 10 µM, with: LPS 100 ng/mL; relative to: LPS alone).
The inhibition of `Cc1cc(N2CCc3c(c(C)nn3CC34CCC(NC(=O)[C@@H]5COCCN5)(CC3)CC4)C2)c2cnn(C)c2n1` is reported as 96 ± 1% (human PBMC; qRT-PCR, item: MX1 mRNA; 100 nM, with: ssRNA).
With `Cc1nn(-c2c(Cl)cccc2Cl)c(C)c1C(=O)Nc1ccc2ccccc2n1` the inhibition was < 50% (Wnt-HEK293; Wnt/β-catenin signalling, inhibitor, luciferase reporter; 1 µM).
`CC(=O)O[C@@]12CO[C@@H]1C[C@H](O)[C@@]1(C)C(=O)[C@H](O)C3=C(C)[C@@H](OC(=O)[C@H](O)[C@@H](NC(=O)OC(C)(C)C)c4ccccc4)C[C@@](O)([C@@H](OC(=O)c4ccccc4)[C@H]21)C3(C)C` has an inhibition of 25% (4T1; cell invasion, Matrigel Transwell; concentration not given, 24 h, with: CXCL12 200 ng/mL; relative to: PBS).
For `Cc1ccc(C)c(-n2nc(C)c(C(=O)Nc3ccc4ccccc4n3)c2C)c1`, the inhibition was > 70% (Wnt-HEK293; Wnt/β-catenin signalling, inhibitor, luciferase reporter; 1 µM).
With `COc1cc(/C=C/C(=O)CC(=O)/C=C/c2ccc(O)c(OC)c2)ccc1O` the inhibition was 52% and ~50% (human enterocytes, cryopreserved; testosterone glucuronide formation; 50 µM, 0.75 h, with: testosterone 50 µM).
